Earlier results, collected from citations in different studies.
Numbers after ± are the reported error. Converted amounts (≈) assume the structure as drawn.

O=c1n(CCCN2CCN(c3cccc(Cl)c3)CC2)nc2ccccn12 — QTcB prolongation (human; oral, 90 mg, from 30 min): > 20 ms
O=C(O)CNC(=O)c1ccccc1[131I] — percent injected dose (normal rat, blood; 60 min, with: co-injected 99mTc-1): 0.5 %ID
O=C1CC(c2ccc(O)cc2)Oc2cc(O)cc(O)c21 (centres unmarked) — urinary excretion as conjugates (rat; oral, in meal, 230 µmol/rat, 24 h): ~30%
CC1=C(CC(=O)O)c2cc(F)ccc2/C1=C\c1ccc([S+](C)[O-])cc1 (centres unmarked) — Cmax (plasma; concentration not given): 19 µM
Cc1ccnc2c1NC(=O)c1cccnc1N2C1CC1 — oral bioavailability (human; oral): > 90%
Sc1ncnc2nc[nH]c12 — logP (octanol-water): 0.01
CNC(=O)c1cc(Oc2ccc(NC(=O)Nc3ccc(Cl)c(C(F)(F)F)c3)cc2)ccn1 — cardiac ischaemia or infarction events (renal cell carcinoma patients; dose not given, 16 months post-crossover, phase III; reference: patients): 4.9%
CC(C)C(=O)OCC(=O)[C@@]12O[C@H](C3CCCCC3)O[C@@H]1C[C@H]1[C@@H]3CCC4=CC(=O)C=C[C@]4(C)[C@H]3[C@@H](O)C[C@@]12C — lung deposition (adults with asthma; inhaled, HFA-MDI without spacer): 53.2%
COc1ccc(-n2nc(C(N)=O)c3c2C(=O)N(c2ccc(N4CCCCC4=O)cc2)CC3)cc1 — exposure increase (human; concentration not given, with: diltiazem; reference: compound alone): ~40%
NC(=O)N1c2ccccc2C=Cc2ccccc21 — aqueous solubility (water; hydrate form): 130 µg/mL (≈ 550 µM)
CNC(C)C1CCC(N)C(OC2C(N)CC(N)C(OC3OCC(C)(O)C(NC)C3O)C2O)O1 (centres unmarked) — Cmax (plasma; concentration not given): 13 µM
C[C@@H]1CCO[C@H]2Cn3cc(C(=O)NCc4ccc(F)cc4F)c(=O)c(O)c3C(=O)N12 — AUC(0-t) (healthy Japanese subjects; 50 mg, single dose, fasted): 46100 ng·h/mL
CC1=NS(=O)(=O)c2cc(Cl)ccc2N1 — Cmax (plasma; concentration not given): 152 µM
COc1cc2c(Oc3ccc4[nH]c(C)cc4c3F)ncnc2cc1OCCCN1CCCC1 — Css,max (human, plasma; oral, 30 mg once daily, multiple doses, geometric mean): 69.6 ng/mL
CC[C@H](C)[C@H](NC(=O)[C@@H](CCCCN)NC(=O)[C@H](CCCCN)NC(=O)[C@H](Cc1ccccc1)NC(=O)[C@H](CC(C)C)NC(=O)[C@H](CCCCN)NC(=O)[C@@H](N)CCCCN)C(=O)N[C@@H](CC(C)C)C(=O)N[C@@H](CCCCN)C(=O)N[C@@H](Cc1ccc(O)cc1)C(=O)N[C@@H](CC(C)C)C(N)=O — hemolysis (horse erythrocytes 5 % v/v; 150 µM): 23 ± 2%
CN(C)C(=O)c1cc2cnc(Nc3ccc(N4CCNCC4)cn3)nc2n1C1CCCC1 — unbound concentration (recurrent glioblastoma patients, MRI-enhancing tumour; oral, 900 mg/day, 5 days): 2.15 nmol/g
CNCCC=C1c2ccccc2CCc2ccccc21 — logP: 3.9
C[C@H](Cn1cnc2c(N)ncnc21)OCP(=O)(O)O — half-life (human; official monograph data): ~32 h
Clc1ccc(COC(Cn2ccnc2)c2ccc(Cl)cc2Cl)c(Cl)c1 (centres unmarked) — maximum whole-body concentration (juvenile Chinook salmon, whole body wet weight; concentration not given, field-collected): 1.8 ng/g
COC(=O)c1ccc2c(c1)NC(=O)/C2=C(\Nc1ccc(N(C)C(=O)CN2CCN(C)CC2)cc1)c1ccccc1 — exposure (humans with mild hepatic impairment; concentration not given; reference: normal hepatic function): ≤ 1.4 fold
CCCCN1CCCCC1C(=O)Nc1c(C)cccc1C (centres unmarked) — Cmax (plasma; concentration not given): 0.7 µM
CCOc1cc([C@@H](CS(C)(=O)=O)N2C(=O)c3cccc(NC(C)=O)c3C2=O)ccc1OC — exposure increase (human; dose not given, with: ketoconazole): 36%
C[C@]12CC[C@H](OS(=O)(=O)O)CC1=CC[C@@H]1[C@@H]2CC[C@]2(C)C(c3ccc[n+]([O-])c3)=CC[C@@H]12 — unbound fraction (human, plasma): 0.22%
CC(C)c1nc(CN(C)C(=O)N[C@H](C(=O)N[C@@H](Cc2ccccc2)C[C@H](O)[C@H](Cc2ccccc2)NC(=O)OCc2cncs2)C(C)C)cs1 — Cmax (plasma; concentration not given): 7.07 µM
liraglutide — unbound fraction (human, severe hepatic impairment, plasma; 100 pM): 0.4%
CNCc1ccc(-c2cc(-c3nc(-c4ccc(S(=O)(=O)C(C)C)cc4)cnc3N)on2)cc1 — bile concentration (HPLC-UV; rat, bile; intravenous infusion, 10 mg/kg): 9 µg/mL
VGGVVIA — solubility (filtration; peptide, sodium phosphate buffer; pH 7.4): 134 ± 19 µM
CCC(C)C(CC)C(N)=O (centres unmarked) — exposure margin (rat, plasma; modest teratogenic signal, unit not given; reference: over suggested therapeutic plasma level): 15
CN(C)C(=N)N=C(N)N — plasma concentration (type 2 diabetic patients, plasma; 1 g twice daily, 14 h after last dose): 0.4 to 32 µM
Nc1ncnc2c1ncn2[C@H]1C[C@@H]2OP(=O)(O)OC[C@H]2O1 — log Kw (methanol/water): 0.97
C[C@@H]1CCN(C(=O)CC#N)C[C@@H]1N(C)c1ncnc2[nH]ccc12 — half-life (healthy human volunteers; oral, 10 mg): ~3.2 h
CNC(=O)c1cc(Oc2ccc(NC(=O)Nc3ccc(Cl)c(C(F)(F)F)c3)cc2)ccn1 — patients with thrombocytopenia (patients; dose not given, all grades): 12%
Nc1ccn([C@@H]2CS[C@H](CO)O2)c(=O)n1 — AUC(0-inf) (Japanese HIV-infected patients; 300 mg, single dose, fasted, with: abacavir 600 mg): 16400 ng·h/mL
CC(C)(C)NC(=O)[C@@H]1C[C@@H]2CCCC[C@@H]2CN1C[C@@H](O)[C@H](Cc1ccccc1)NC(=O)[C@H](CC(N)=O)NC(=O)c1ccc2ccccc2n1 — CL/F (human HIV patients; 600 mg single dose, with: grapefruit juice 200 mL): 1.26 L/h
Cc1nc2cccc(OCC(C)(C)C(=O)NC(C)C)c2c(N)c1C(=O)O — metabolism (phase I biotransformation; human; 60 min; reference: compound): ≤ 0.1%
O=C(NC1CCNCC1)c1n[nH]cc1NC(=O)c1c(Cl)cccc1Cl — tolerability (patients, phase I and II; dose not given): not toxic
N[C@@H](CC(=O)N1CCn2c(nnc2C(F)(F)F)C1)Cc1cc(F)c(F)cc1F — AUC(0-inf) (healthy male humans; dose not given, with: cyclosporine; reference: without cyclosporine): increased
Cc1c(Cl)cccc1Nc1ccccc1C(=O)O — Cmax (plasma; concentration not given): 4.16 µM
CN1CCc2nc(C(=O)N[C@@H]3C[C@@H](C(=O)N(C)C)CC[C@@H]3NC(=O)C(=O)Nc3ccc(Cl)cn3)sc2C1 — non-renal clearance fraction (human; share of total clearance): 50%
CCCC(=O)NCCCC[C@H](NC(=O)[C@H](CCCCN)NC(=O)[C@H](CC(C)C)NC(=O)[C@@H](NC(=O)[C@H](CCCCN)NC(=O)[C@H](CCCCN)NC(=O)[C@@H](Cc1ccccc1)NC(=O)[C@H](CC(C)C)NC(=O)[C@H](CCCCN)NC(=O)[C@H](CCCCN)NC(C)=O)[C@@H](C)CC)C(=O)N[C@@H](CC(C)C)C(N)=O — hemolysis (horse erythrocytes 5 % v/v; 150 µM): 0%
CN1CCN(c2ccc3nc(-c4c(N)c5c(F)cccc5[nH]c4=O)[nH]c3c2)CC1 — AUC(0-t) (human; oral, 500 mg once daily, 24 h, day 1): 3730 ± 2120 ng·h/mL
CN(C)CCCOc1ccc(C(=O)N2c3ccccc3Oc3ccccc32)cc1 — half-life (rat plasma): 0.232 h
CS(=O)(=O)OCCCCOS(C)(=O)=O — Cmax (plasma; concentration not given): 4.9 µM
Nc1nc2c(nc(Br)n2[C@@H]2O[C@@H]3COP(=O)(O)O[C@H]3[C@H]2O)c(=O)[nH]1 — log Kw (methanol/water): 1.17
O=C1c2cccc3c2[C@H](CCC3)CN1[C@@H]1CN2CCC1CC2 — AUC(0-inf) (healthy volunteers; oral, 0.75 mg single dose, mean): 70.8 ng ⋅ h/mL
CC[C@H](C)CCCCC(=O)N[C@@H](CCN)C(=O)N[C@H](C(=O)N[C@@H](CCN)C(=O)N[C@H]1CCNC(=O)[C@H]([C@@H](C)O)NC(=O)[C@H](CCN)NC(=O)[C@H](CCN)NC(=O)[C@H](CC(C)C)NC(=O)[C@@H](Cc2ccccc2)NC(=O)[C@H](CCN)NC1=O)[C@@H](C)O — central volume of distribution (human patients; intravenous, dose not given, two-compartment population PK model): 6.35 L
Cc1c(O)cccc1C(=O)N[C@@H](CSc1ccccc1)[C@H](O)CN1C[C@H]2CCCC[C@H]2C[C@H]1C(=O)NC(C)(C)C — Cmax (plasma; concentration not given): 6 µM
CC[C@H](C)[C@H](NC(=O)[C@H](Cc1ccccc1)NC(=O)[C@H](CCC(=O)O)NC(=O)[C@H](CCCCNC(=O)COCCOCCNC(=O)COCCOCCNC(=O)CC[C@H](NC(=O)CCCCCCCCCCCCCCCCC(=O)O)C(=O)O)NC(=O)[C@H](C)NC(=O)[C@H](C)NC(=O)[C@H](CCC(N)=O)NC(=O)CNC(=O)[C@H](CCC(=O)O)NC(=O)[C@H](CC(C)C)NC(=O)[C@H](Cc1ccc(O)cc1)NC(=O)[C@H](CO)NC(=O)[C@H](CO)NC(=O)[C@@H](NC(=O)[C@H](CC(=O)O)NC(=O)[C@H](CO)NC(=O)[C@@H](NC(=O)[C@H](Cc1ccccc1)NC(=O)[C@@H](NC(=O)CNC(=O)[C@H](CCC(=O)O)NC(=O)C(C)(C)NC(=O)[C@@H](N)Cc1cnc[nH]1)[C@@H](C)O)[C@@H](C)O)C(C)C)C(=O)N[C@@H](C)C(=O)N[C@@H](Cc1c[nH]c2ccccc12)C(=O)N[C@@H](CC(C)C)C(=O)N[C@H](C(=O)N[C@@H](CCCNC(=N)N)C(=O)NCC(=O)N[C@@H](CCCNC(=N)N)C(=O)NCC(=O)O)C(C)C — absorption rate constant (population PK model; human; fixed value): 0.0286 h⁻¹
Cc1ccccc1-c1cc(N2CCN(C)CC2)ncc1N(C)C(=O)C(C)(C)c1cc(C(F)(F)F)cc(C(F)(F)F)c1 — half-life (patients, plasma; oral, dose not given, netupitant-palonosetron combination, with: docetaxel 75 to 100 mg/m^2 IV): 93.8 h
Oc1ccc(Nc2nc(-c3ccc(Cl)cc3)cs2)cc1 — plasma concentration (BALB/c mouse; intraperitoneal, 50 mg/kg, 1 h): 3.5 ± 4.9 µM
